Measured values collected from several papers.
Each line is one published result; not all experiments were run side by side.
PTGS2: Prostaglandin G/H synthase 2 (PTGS2, Homo sapiens, UniProt P35354)
UniProt P35354, sequence (whole entry, looked up): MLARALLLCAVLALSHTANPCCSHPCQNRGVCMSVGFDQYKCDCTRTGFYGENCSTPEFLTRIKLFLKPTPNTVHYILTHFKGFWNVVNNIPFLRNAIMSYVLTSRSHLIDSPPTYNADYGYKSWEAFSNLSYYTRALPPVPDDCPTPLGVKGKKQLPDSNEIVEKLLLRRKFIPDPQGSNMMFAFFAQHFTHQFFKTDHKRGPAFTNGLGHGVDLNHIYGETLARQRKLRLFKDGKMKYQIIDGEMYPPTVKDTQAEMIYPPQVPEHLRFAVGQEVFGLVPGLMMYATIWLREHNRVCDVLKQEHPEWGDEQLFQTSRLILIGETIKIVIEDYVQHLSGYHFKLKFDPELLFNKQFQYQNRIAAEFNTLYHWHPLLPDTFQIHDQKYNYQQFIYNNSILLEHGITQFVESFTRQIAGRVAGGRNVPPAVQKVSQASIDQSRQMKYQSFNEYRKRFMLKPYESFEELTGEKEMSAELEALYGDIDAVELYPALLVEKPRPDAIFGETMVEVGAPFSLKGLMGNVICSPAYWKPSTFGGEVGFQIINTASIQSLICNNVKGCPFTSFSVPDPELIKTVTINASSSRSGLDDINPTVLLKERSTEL
SIRT6: NAD-dependent protein deacylase sirtuin-6 (SIRT6, Homo sapiens, UniProt Q8N6T7)
UniProt Q8N6T7, sequence (whole entry, looked up): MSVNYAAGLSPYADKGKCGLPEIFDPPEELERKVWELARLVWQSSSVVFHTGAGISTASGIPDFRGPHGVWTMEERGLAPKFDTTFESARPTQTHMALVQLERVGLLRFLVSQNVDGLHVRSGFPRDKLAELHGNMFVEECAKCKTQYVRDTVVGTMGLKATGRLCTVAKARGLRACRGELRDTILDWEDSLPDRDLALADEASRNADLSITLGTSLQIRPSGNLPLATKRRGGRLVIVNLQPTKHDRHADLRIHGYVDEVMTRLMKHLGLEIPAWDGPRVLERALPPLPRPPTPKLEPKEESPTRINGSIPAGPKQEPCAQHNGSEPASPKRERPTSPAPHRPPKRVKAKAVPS
MPO: Myeloperoxidase (MPO, Homo sapiens, UniProt P05164)
UniProt P05164, sequence (whole entry, looked up): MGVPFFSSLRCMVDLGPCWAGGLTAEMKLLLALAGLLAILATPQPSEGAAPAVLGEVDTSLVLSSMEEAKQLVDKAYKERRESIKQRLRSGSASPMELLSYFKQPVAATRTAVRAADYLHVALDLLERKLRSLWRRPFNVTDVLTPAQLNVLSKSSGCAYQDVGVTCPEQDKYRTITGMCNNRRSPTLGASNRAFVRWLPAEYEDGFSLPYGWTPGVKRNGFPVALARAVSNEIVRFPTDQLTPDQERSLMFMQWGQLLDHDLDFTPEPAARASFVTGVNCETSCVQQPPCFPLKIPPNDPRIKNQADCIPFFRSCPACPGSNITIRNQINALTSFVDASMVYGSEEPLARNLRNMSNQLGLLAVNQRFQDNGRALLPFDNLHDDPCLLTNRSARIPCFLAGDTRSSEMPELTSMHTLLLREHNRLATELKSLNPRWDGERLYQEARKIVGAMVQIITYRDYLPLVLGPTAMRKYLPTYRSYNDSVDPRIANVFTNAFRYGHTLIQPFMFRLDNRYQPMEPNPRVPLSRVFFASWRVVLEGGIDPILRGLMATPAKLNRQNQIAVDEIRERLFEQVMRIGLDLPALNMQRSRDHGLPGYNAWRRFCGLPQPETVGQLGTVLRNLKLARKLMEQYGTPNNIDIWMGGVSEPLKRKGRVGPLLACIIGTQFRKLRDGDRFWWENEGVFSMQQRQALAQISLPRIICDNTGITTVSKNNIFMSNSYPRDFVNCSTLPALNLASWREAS
HDAC1: Histone deacetylase 1 (HDAC1, Homo sapiens, UniProt Q13547)
UniProt Q13547, sequence (whole entry, looked up): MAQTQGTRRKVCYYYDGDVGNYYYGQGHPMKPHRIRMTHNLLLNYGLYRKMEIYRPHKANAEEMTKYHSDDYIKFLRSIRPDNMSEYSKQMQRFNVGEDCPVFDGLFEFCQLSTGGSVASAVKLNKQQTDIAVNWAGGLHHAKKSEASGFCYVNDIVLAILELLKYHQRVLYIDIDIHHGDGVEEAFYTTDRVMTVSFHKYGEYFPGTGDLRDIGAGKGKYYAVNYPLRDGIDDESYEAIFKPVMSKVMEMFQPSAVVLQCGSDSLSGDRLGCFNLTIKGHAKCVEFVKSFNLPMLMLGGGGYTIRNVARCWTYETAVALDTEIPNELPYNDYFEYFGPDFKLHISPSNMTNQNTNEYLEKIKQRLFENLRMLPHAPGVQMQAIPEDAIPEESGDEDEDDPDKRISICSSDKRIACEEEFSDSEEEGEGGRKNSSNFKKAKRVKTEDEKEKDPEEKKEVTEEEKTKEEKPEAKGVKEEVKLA
GSK3B: Glycogen synthase kinase-3 beta (GSK3B, Homo sapiens, UniProt P49841)
UniProt P49841, sequence (whole entry, looked up): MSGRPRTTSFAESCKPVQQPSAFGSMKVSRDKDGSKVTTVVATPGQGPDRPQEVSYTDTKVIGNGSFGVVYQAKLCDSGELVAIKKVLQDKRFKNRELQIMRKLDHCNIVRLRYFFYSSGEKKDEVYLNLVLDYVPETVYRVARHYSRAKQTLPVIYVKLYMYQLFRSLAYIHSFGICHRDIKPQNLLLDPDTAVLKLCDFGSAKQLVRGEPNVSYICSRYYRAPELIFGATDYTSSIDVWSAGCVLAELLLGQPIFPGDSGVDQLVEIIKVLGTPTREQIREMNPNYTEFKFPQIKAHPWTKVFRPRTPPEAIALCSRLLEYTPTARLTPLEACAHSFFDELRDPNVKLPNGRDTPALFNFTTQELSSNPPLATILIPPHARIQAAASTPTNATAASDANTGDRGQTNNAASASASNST
USP51: Ubiquitin carboxyl-terminal hydrolase 51 (USP51, Homo sapiens, UniProt Q70EK9)
UniProt Q70EK9, sequence (whole entry, looked up): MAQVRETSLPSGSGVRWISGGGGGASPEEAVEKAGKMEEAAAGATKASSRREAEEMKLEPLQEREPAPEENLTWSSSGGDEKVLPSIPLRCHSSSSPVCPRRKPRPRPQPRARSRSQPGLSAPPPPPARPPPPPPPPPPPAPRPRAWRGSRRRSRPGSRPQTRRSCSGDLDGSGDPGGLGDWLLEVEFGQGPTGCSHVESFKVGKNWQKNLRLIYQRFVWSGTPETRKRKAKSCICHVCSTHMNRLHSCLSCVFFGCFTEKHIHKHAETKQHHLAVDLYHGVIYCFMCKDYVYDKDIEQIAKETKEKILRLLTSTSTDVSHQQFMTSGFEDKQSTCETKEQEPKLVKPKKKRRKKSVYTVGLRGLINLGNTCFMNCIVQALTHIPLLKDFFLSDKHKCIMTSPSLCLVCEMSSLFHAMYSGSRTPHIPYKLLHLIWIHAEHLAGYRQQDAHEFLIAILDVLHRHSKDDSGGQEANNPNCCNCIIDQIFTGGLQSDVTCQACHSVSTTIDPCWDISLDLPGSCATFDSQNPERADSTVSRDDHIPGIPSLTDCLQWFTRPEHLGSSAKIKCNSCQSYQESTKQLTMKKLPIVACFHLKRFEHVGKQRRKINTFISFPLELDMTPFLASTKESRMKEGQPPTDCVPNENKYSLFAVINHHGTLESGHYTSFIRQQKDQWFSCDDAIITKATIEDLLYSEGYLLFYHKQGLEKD
HDAC8: Histone deacetylase 8 (HDAC8, Homo sapiens, UniProt Q9BY41)
UniProt Q9BY41, sequence (whole entry, looked up): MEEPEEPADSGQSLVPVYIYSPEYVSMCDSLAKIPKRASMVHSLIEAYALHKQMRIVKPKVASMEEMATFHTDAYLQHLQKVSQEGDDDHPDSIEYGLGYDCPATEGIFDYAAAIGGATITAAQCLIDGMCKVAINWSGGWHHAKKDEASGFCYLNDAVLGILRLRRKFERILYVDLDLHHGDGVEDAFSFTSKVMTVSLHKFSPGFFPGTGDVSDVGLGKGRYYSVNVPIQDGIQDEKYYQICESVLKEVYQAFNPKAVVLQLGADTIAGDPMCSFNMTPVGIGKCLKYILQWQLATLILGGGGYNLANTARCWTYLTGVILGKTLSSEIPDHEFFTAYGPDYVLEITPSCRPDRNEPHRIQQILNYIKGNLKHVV
SCN1A: Sodium channel protein type 1 subunit alpha (SCN1A, Homo sapiens, UniProt P35498)
PDE10A: cAMP and cAMP-inhibited cGMP 3',5'-cyclic phosphodiesterase 10A (PDE10A, Homo sapiens, UniProt Q9Y233)
UniProt Q9Y233, sequence (whole entry, looked up): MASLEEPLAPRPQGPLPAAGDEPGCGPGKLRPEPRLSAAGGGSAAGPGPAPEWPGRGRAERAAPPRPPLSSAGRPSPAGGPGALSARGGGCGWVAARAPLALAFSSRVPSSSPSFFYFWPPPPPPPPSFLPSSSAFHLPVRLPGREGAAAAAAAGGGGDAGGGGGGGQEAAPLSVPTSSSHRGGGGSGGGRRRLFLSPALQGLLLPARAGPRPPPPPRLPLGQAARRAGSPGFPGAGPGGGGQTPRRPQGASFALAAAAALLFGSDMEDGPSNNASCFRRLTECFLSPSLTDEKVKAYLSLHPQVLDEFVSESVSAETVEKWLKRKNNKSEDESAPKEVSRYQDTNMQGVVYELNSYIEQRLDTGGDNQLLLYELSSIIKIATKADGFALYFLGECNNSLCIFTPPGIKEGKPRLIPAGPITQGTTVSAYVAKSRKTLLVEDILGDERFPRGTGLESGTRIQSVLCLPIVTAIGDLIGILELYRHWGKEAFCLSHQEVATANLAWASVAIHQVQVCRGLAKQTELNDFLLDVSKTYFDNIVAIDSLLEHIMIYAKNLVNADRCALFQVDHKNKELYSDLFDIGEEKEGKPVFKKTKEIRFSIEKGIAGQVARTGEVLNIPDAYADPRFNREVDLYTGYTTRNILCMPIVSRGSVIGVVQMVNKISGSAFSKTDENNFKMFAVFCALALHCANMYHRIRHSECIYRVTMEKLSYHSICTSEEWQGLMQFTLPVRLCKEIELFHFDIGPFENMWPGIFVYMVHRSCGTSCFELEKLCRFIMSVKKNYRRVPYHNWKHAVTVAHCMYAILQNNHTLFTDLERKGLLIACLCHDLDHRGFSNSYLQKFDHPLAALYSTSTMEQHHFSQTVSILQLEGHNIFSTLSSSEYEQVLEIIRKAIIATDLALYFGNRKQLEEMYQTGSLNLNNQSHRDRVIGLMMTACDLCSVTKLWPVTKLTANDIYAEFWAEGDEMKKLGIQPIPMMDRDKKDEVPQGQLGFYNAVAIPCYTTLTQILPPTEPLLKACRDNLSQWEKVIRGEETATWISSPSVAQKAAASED
UniProt P00374, sequence (whole entry, looked up): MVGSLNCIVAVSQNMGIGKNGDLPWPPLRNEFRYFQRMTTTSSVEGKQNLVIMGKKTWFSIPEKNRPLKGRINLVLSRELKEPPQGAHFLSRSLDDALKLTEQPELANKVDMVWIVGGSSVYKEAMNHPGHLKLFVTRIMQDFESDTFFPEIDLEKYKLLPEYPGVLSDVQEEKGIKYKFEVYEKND

SMILES | target | test | conditions | inhibition [%]
CN1CC(Oc2cnc(C#N)cc2-c2ccn3nc(NC(=O)C4CC4)cc3c2)C1 | PIM3 (Homo sapiens, UniProt Q86V86) | enzyme activity, inhibitor | 1 µM | -5
COc1cc(-c2cc(=O)c3c(O)cc(O)cc3o2)ccc1O | PTGS2 | enzyme activity, inhibitor | 3.9 µg/mL | 31.1
NC(=O)c1ccc(C(=O)NOCc2ccc(-c3ccccc3)cc2)cc1 | SIRT6 | enzyme activity, inhibitor, fluorescence | 100 µM | 98.3
NC/C(=C\F)COc1cccc(Cn2c(=S)[nH]c(=O)c3[nH]cnc32)c1 | MPO | enzyme activity, inhibitor, fluorescence | 1.111 µM | 98.9
O=C(NO)c1cccc(OS(=O)(=O)Oc2ccccc2OCc2ccccc2)c1 | HDAC1 | enzyme activity, inhibitor, fluorescence | 10 µM | 26
C#Cc1cc(-c2cc(Nc3nc(N[C@@H](C)c4ccc(F)cn4)ncc3Cl)n[nH]2)ccc1C=O | AKT1 (Homo sapiens, UniProt P31749) | enzyme activity, inhibitor | 0.2 µM | 1.24
CC[C@H](C)[C@H](NC(=O)[C@H](CCC(N)=O)NC(=O)[C@H](CC(C)C)NC(=O)[C@H](CCSC)NC(=O)[C@H](CCCCN)NC(=O)[C@H](CO)NC(=O)[C@H](CO)NC(=O)[C@H](CCSC)NC(=O)[C@H](CC(C)C)NC(=O)[C@H](CC(N)=O)NC(=O)[C@@H](NC(=O)[C@@H](NC(=O)[C@H](CO)NC(=O)[C@H](CC(C)C)NC(=O)[C@H](CS)NC(=O)[C@H](CCCNC(=N)N)NC(=O)[C@H](CC(=O)O)NC(=O)[C@H](Cc1c[nH]c2ccccc12)NC(=O)[C@H](Cc1ccccc1)NC(=O)[C@H](C)NC(=O)[C@H](CCC(=O)O)NC(=O)[C@@H](N)CCCCN)C(C)C)[C@@H](C)CC)C(=O)N[C@@H](CC(N)=O)C(=O)N[C@@H](C)C(=O)O | GSK3B | enzyme activity, inhibitor, radiometric | 50 µM | 0
CCCCCCC#Cc1cncc(-c2nnc(SCc3ccc([N+](=O)[O-])cc3)n2CCCN)c1 | mraY (Staphylococcus aureus, UniProt Q2FZ93) | cell-free assay, inhibitor | 250 µM | 82
NC(=O)c1ccccc1O | USP51 | enzyme activity, inhibitor | 5 µM | 4
Cc1cc(OS(=O)(=O)Oc2cccc(C(C)(C)C)c2)cc(C(=O)NO)c1 | HDAC8 | enzyme activity, inhibitor, fluorescence | 10 µM | 41
O=C(O)c1ccc(O)cc1 | PTGS2 | enzyme activity, inhibitor | 31.25 µg/mL | 100
Cc1c(OS(=O)(=O)Oc2cccc(C(C)C)c2)cccc1C(=O)NO | HDAC8 | enzyme activity, inhibitor, fluorescence | 10 µM | 14
CC12CC3CC(C)(C1)CC(N)(C3)C2 | SCN1A | ion current, inhibitor, patch clamp | 30 µM | 18.7
O=C(NO)c1cccc(OS(=O)(=O)Oc2ccc(Oc3ccccc3)cc2)c1 | HDAC1 | enzyme activity, inhibitor, fluorescence | 10 µM | 28
CC(C)OCCn1c(=S)[nH]c(=O)c2[nH]ccc21 | MPO | enzyme activity, inhibitor, fluorescence | 61.7 nM | 57.8
C[C@]12C[C@H](O)[C@H]3[C@@H](CCC4=CC(=O)CC[C@@]43C)[C@@H]1CC[C@@H]2C(=O)CO | USP51 | enzyme activity, inhibitor | 5 µM | 26
COc1cc([C@H]2OC[C@H]3[C@@H]2CO[C@@H]3c2cc(OC)c(O)c(OC)c2)cc(OC)c1O | PTGS2 | enzyme activity, inhibitor | 0.24 µg/mL | 13
Cc1cc(OS(=O)(=O)Oc2ccc(C(C)(C)C)cc2C)cc(C(=O)NO)c1 | HDAC8 | enzyme activity, inhibitor, fluorescence | 10 µM | 30
C[C@H]1O[C@H](O[C@H]2[C@H](O)[C@@H](O)[C@@H](O[C@H]3[C@H](O)[C@@H](O)C(O)O[C@@H]3CO)O[C@@H]2CO)[C@H](O)[C@@H](O)[C@@H]1N[C@H]1C=C(CO)[C@@H](O)[C@H](O)[C@H]1O (stereo partly shown) | MAL12 (Saccharomyces cerevisiae S288c, UniProt P53341) | enzyme activity, inhibitor, absorbance | 200 µg/mL | 58.5
Cc1c(OS(=O)(=O)Oc2cccc(C(C)(C)C)c2)cccc1C(=O)NO | HDAC8 | enzyme activity, inhibitor, fluorescence | 10 µM | 16
Cc1ccc(-c2ccc3c(c2)C=C(C(=O)Nc2ccc(C[N+](C)(C)C4CCOCC4)cc2)CCC3)cc1 | CCR5 (Homo sapiens, UniProt P51681) | β-arrestin recruitment, antagonist | 1 µM | > 70
COc1cc(-c2cc(C(C)=O)n3ccccc23)cc(OC)c1Cn1ccnc1 | BRD9 (Homo sapiens, UniProt Q9H8M2) | protein-protein interaction, inhibitor, AlphaScreen | 1 µM | 96.9

SMILES | target | test | conditions | inhibition [%]
O=c1oc2ccccc2c(O)c1Cc1c(O)c2ccccc2oc1=O | USP51 | enzyme activity, inhibitor | 5 µM | 0
O=c1cc(-c2ccc(O)cc2)oc2cc(O)cc(O)c12 | PTGS2 | enzyme activity, inhibitor | 7.81 µg/mL | 72.2
Nc1c(Br)cc(Br)cc1CN[C@H]1CC[C@H](O)CC1 | SCN1A | ion current, inhibitor, patch clamp | 30 µM | 54.3
O=C(c1ccc([N+](=O)[O-])cc1)N1CCC(n2cncc2-c2ccc(OS(=O)(=O)c3cccc4cnccc34)cc2)CC1 | P2X purinoceptor 7 (P2RX7, Homo sapiens, UniProt Q99572) | ligand displacement, radioligand | 1 µM, cell membranes | > 70
COc1ccc(Cc2ccnc3cc(OC)c(OC)cc23)cc1OC | PDE10A | enzyme activity, inhibitor, FP | 0.1 µM | 26
Cc1ncsc1-c1ccc(CNC(=O)[C@@H]2C[C@@H](O)CN2C(=O)[C@@H](NC(=O)CCCCCCCCNC(=O)CN2CCN(C(=O)c3ccc(Nc4nc(C5CC5)cn5c(-c6cn[nH]c6)cnc45)c(F)c3)CC2)C(C)(C)C)cc1 | NTRK2 (Homo sapiens, UniProt Q16620) | cell-free assay, competition with immobilised ligand | 1 µM | > 65
CC[C@H](C)[C@H](NC(=O)[C@H](CCC(N)=O)NC(=O)[C@@H](NC(=O)[C@H](CCSC)NC(=O)[C@H](CCCCN)NC(=O)[C@H](CO)NC(=O)[C@@H](NC(=O)[C@H](CCSC)NC(=O)[C@H](CC(C)C)NC(=O)[C@H](CC(N)=O)NC(=O)[C@@H](NC(=O)[C@@H](NC(=O)[C@H](CO)NC(=O)[C@H](CC(C)C)NC(=O)[C@H](C)NC(=O)[C@H](CCCNC(=N)N)NC(=O)[C@H](CCC(=O)O)NC(=O)[C@H](Cc1ccc(O)cc1)NC(=O)[C@H](Cc1ccccc1)NC(=O)[C@H](C)NC(=O)[C@H](CC(N)=O)NC(=O)[C@@H](N)CCCCN)[C@@H](C)CC)[C@@H](C)CC)[C@@H](C)O)C(C)C)C(=O)N[C@@H](CC(N)=O)C(=O)N[C@H](C(=O)O)C(C)C | GSK3B | enzyme activity, inhibitor, radiometric | 500 µM | -40
CC[C@H](C)C(=O)O[C@H]1C[C@@H](C)C=C2C=C[C@H](C)[C@H](CC[C@@H]3C[C@@H](O)CC(=O)O3)[C@H]21 | USP51 | enzyme activity, inhibitor | 5 µM | 93
O=c1cc(-c2ccc(O)c(O)c2)oc2cc(O)cc(O)c12 | PTGS2 | enzyme activity, inhibitor | 0.98 µg/mL | 60.2
NC(=O)c1ccc(C(=O)NOCc2ccc(Sc3cc(F)cc(F)c3)c(C(F)(F)F)c2)cc1 | SIRT6 | enzyme activity, inhibitor, fluorescence | 100 µM | 100
COc1ccc(Cl)cc1-c1cc(=O)[nH]c(=S)n1CC(N)=O | MPO | enzyme activity, inhibitor, fluorescence | 1.667 µM | 95.2
COc1ccc([C@H]2OC[C@H]3[C@@H]2CO[C@H]3c2ccc(O[C@@H]3O[C@H](CO)[C@@H](O)[C@H](O)[C@H]3O)c(OC)c2)cc1OC | USP51 | enzyme activity, inhibitor | 5 µM | 26
Cc1cc(O)c(-c2ccc([C@@H](C)CN(C)C)cc2)c2c1[nH]c(=O)c1sccc12 | FER (Homo sapiens, UniProt P16591) | enzyme activity, inhibitor | 0.1 µM, lysate | 0.734
O=c1c(O)c(-c2ccc(O)c(O)c2)oc2cc(O)cc(O)c12 | USP51 | enzyme activity, inhibitor | 5 µM | 97
COc1ccc(C(=O)c2nccc3cc(OC)c(OC)cc23)cc1 | PDE10A | enzyme activity, inhibitor, FP | 0.1 µM | 32
Cc1c(OS(=O)(=O)Oc2ccccc2)cccc1C(=O)NO | HDAC8 | enzyme activity, inhibitor, fluorescence | 10 µM | 32
COc1cc2ncnc(Cc3cccc(-c4cccc(CO)c4)c3)c2cc1OC | PDE10A | enzyme activity, inhibitor, FP | 0.1 µM | 71
O=C(O)/C=C/c1ccc(O)c(O)c1 | USP51 | enzyme activity, inhibitor | 5 µM | 47
S=C(NN=Cc1ccc(N2CCCCC2)cc1)Nc1ccc(Cl)cc1 | DHFR (Homo sapiens, UniProt P00374) | enzyme activity, inhibitor | 500 µM | 90.2
CC1(C)CCC[C@](C)([C@H]2CC[C@]3(C)[C@@H]2[C@H](O)C[C@@H]2[C@@]4(C)CC[C@H](O)C(C)(C)[C@@H]4[C@@H](O)C[C@]23C)O1 | USP51 | enzyme activity, inhibitor | 5 µM | 0
N#CC[C@@]12C[C@@H]1[C@@H](n1cnc3c(Nc4ccccc4)nc(I)nc31)[C@H](O)[C@@H]2O | SLC6A4 (Homo sapiens, UniProt P31645) | ligand displacement, radioligand | 10 µM | 23

Repeated from above:
SMILES | target | test | conditions | inhibition [%]
O=C(NO)c1cccc(OS(=O)(=O)Oc2ccccc2OCc2ccccc2)c1 | HDAC1 | enzyme activity, inhibitor, fluorescence | 10 µM | 26
S=C(NN=Cc1ccc(N2CCCCC2)cc1)Nc1ccc(Cl)cc1 | DHFR (Homo sapiens, UniProt P00374) | enzyme activity, inhibitor | 500 µM | 90.2
Cc1cc(OS(=O)(=O)Oc2ccc(C(C)(C)C)cc2C)cc(C(=O)NO)c1 | HDAC8 | enzyme activity, inhibitor, fluorescence | 10 µM | 30
O=c1cc(-c2ccc(O)c(O)c2)oc2cc(O)cc(O)c12 | PTGS2 | enzyme activity, inhibitor | 0.98 µg/mL | 60.2
CN1CC(Oc2cnc(C#N)cc2-c2ccn3nc(NC(=O)C4CC4)cc3c2)C1 | PIM3 (Homo sapiens, UniProt Q86V86) | enzyme activity, inhibitor | 1 µM | -5
Cc1c(OS(=O)(=O)Oc2ccccc2)cccc1C(=O)NO | HDAC8 | enzyme activity, inhibitor, fluorescence | 10 µM | 32
CC[C@H](C)[C@H](NC(=O)[C@H](CCC(N)=O)NC(=O)[C@H](CC(C)C)NC(=O)[C@H](CCSC)NC(=O)[C@H](CCCCN)NC(=O)[C@H](CO)NC(=O)[C@H](CO)NC(=O)[C@H](CCSC)NC(=O)[C@H](CC(C)C)NC(=O)[C@H](CC(N)=O)NC(=O)[C@@H](NC(=O)[C@@H](NC(=O)[C@H](CO)NC(=O)[C@H](CC(C)C)NC(=O)[C@H](CS)NC(=O)[C@H](CCCNC(=N)N)NC(=O)[C@H](CC(=O)O)NC(=O)[C@H](Cc1c[nH]c2ccccc12)NC(=O)[C@H](Cc1ccccc1)NC(=O)[C@H](C)NC(=O)[C@H](CCC(=O)O)NC(=O)[C@@H](N)CCCCN)C(C)C)[C@@H](C)CC)C(=O)N[C@@H](CC(N)=O)C(=O)N[C@@H](C)C(=O)O | GSK3B | enzyme activity, inhibitor, radiometric | 50 µM | 0
